# Experimental data from different studies.
# ± marks the error that the study gave.
SMILES,cell line,assay,setting,how to read,quantity,value
C[C@H](OP(=O)(O)O)[C@H]1NC(=O)[C@H](CCCNC(=N)N)NC(=O)[C@H](CCCNC(=N)N)NC(=O)[C@H](CCCNC(=N)N)NC(=O)[C@H](CCC(N)=O)NC(=O)[C@H](CCCNC(=N)N)NC(=O)[C@H](CCCNC(=N)N)NC(=O)[C@H](Cc2ccc3ccccc3c2)NC(=O)[C@@H]2CCCCN2C1=O,BT-474,measured: PML and SMRT,2.5 and 5.0 µM,,protein level,increased
C[C@H]1C(OCCCCCCCC[P+](c2ccccc2)(c2ccccc2)c2ccccc2)O[C@@H]2O[C@@]3(C)CCC4[C@H](C)CCC1[C@]42OO3 (stereo partly shown),J82,PI flow cytometry,"100 nM, 48 h",,G0/G1 phase cells,73.1%
CCCN1CCNC1=[S+][Ag-3]([O][N+](=O)[O-])([P+](c1ccccc1)(c1ccccc1)c1ccccc1)[P+](c1ccccc1)(c1ccccc1)c1ccccc1,MG-63 osteosarcoma,MTT,100 µM,,cell killing,≤ 91%
CC[C@H](C)[C@H](NC(C)=O)C(=O)N[C@@H](CC(N)=O)C(=O)N[C@@H](Cc1c[nH]c2ccccc12)C(=O)N[C@@H](CCC(=O)O)C(=O)NCC(=O)N[C@H](C(=O)N[C@@H](C)C(=O)N[C@@H](Cc1c[nH]cn1)C(=O)N[C@@H](CCSC)C(=O)N[C@@H](C)C(=O)N[C@@H](CCCCN)C(=O)N[C@@H](CCCCN)C(=O)N[C@@H](CC(C)C)C(=O)N[C@@H](CC(C)C)C(N)=O)[C@@H](C)CC,human erythrocytes,,together with: Zn(II) 300 µM,relative to: without metal,haemolytic potency ratio,3 fold
[Cl-].[Cl][Ru-4]123([n+]4ccccc4-c4cc(-c5ccccc5)cc([n+]41)-c1cccc[n+]12)[n+]1ccc(-c2ccccc2)c2ccc4c(-c5ccccc5)cc[n+]3c4c21,HEL 299 and A549,resazurin,,relative to: IC50 HEL 299 over A549,selectivity index,13.3
O=C1[O][Pt]2([OH])([OH])([NH]C3CCCCC3[NH]2)[O]C1=O (stereo not shown),HUVEC,tube formation,"IC10, 16 h",,tube node disruption,9%
C#CCCCN(CCNc1ccnc2cc(Cl)ccc12)C(=O)CCC(=O)O[C@@H]1O[C@@H]2O[C@@]3(C)CC[C@H]4[C@H](C)CCC([C@H]1C)[C@@]24OO3 (stereo partly shown),MOLT-4,"cell growth or viability, resazurin","10 µM, 48 h",,inhibition,21.8%
CC[C@H](C)[C@H](NC(C)=O)C(=O)N[C@@H](CC(N)=O)C(=O)N[C@@H](Cc1c[nH]c2ccccc12)C(=O)N[C@@H](Cc1c[nH]cn1)C(=O)NCC(=O)N[C@H](C(=O)N[C@@H](C)C(=O)N[C@@H](Cc1c[nH]cn1)C(=O)N[C@@H](CCSC)C(=O)N[C@@H](C)C(=O)N[C@@H](CCCCN)C(=O)N[C@@H](CCCCN)C(=O)N[C@@H](CC(C)C)C(=O)N[C@@H](CC(C)C)C(N)=O)[C@@H](C)CC,human erythrocytes,haemolysis,together with: Zn(II) 300 µM,,Hill coefficient,1.9 ± 0.2
CCCC[C@H](O)C[C@@H](C)C[C@H](NC(=O)[C@@H]1C[C@H](C)CN1C(=O)/C=C/[C@@H](C)CC)C(=O)N[C@H](C(=O)NC(C)(C)C(=O)N[C@@H](CC(C)C)C(=O)N[C@@H](CC(C)C)C(=O)NC(C)(C)C(=O)NC(C)(C)C(=O)NCCC(=O)N[C@@H](C)CN(C)C)[C@H](O)C(C)C,MDA-MB-453,"cell growth or viability, SRB",48 h,,GI50,3.7 nM
COC(=O)c1ccc(-n2cc(CCCN(CCNc3ccnc4cc(Cl)ccc34)C(=O)CCC(=O)OC3OC4OC5(C)CCC6C(C)CCC(C3C)C46OO5)nn2)cc1 (stereo not shown),CCRF-CEM,"cell growth or viability, resazurin","10 µM, 48 h",,inhibition,53%
CC(C)CC(O)(CC(C)C)c1cn(C(=O)N2CCCC2)nn1,mouse T-cells,"N-terminal labelling enrichment, measured: S100A6 N-terminal peptides","1 nM, 6 h, protein median",relative to: DMSO,SILAC ratio,3.93 ± 0.33
COc1ccc(C(=O)CCl)cc1,AP1-luc HEK293,"AP1 reporter gene, activator, luciferase",together with: FBS stimulation,relative to: control,fold increase,~4 fold
O=C(O)CCC(NP(=O)(O)OCCC[C@@H](NC(=O)CCC(NC(=O)c1ccc([18F])cc1)C(=O)O)C(=O)O)C(=O)O (stereo partly shown),CWR22Rv1,,1 h,,surface-bound fraction,19.3 ± 1.76%
C[C@H]1O[C@@H]2C3=C(O[C@]2(C)[C@@]1(O)C=O)C(=O)c1c(O)cccc1C3=O,A549 and HFF,MTT,,relative to: CC50 HFF over EC50 A549,selectivity index,2.16
CNC(=O)c1cc(Oc2ccc(NC(=O)c3cc(-c4cccc(OC(=O)CCC(=O)OC5OC6OC7(C)CCC8C(C)CCC(C5C)C68OO7)c4)ccn3)cc2)ccn1 (stereo not shown),Hep3B and LO2,"cell viability, MTT",72 h,relative to: IC50 LO2 over IC50 Hep3B,selectivity ratio,5.3
CC(C)[C@@H]1NC(=O)[C@H](CCCCN)NC(=O)[C@@H](Cc2c[nH]c3ccccc23)NC(=O)[C@H](Cc2ccc(O)cc2)NC(=O)[C@@H](NC(=O)[C@H](N)Cc2ccc3ccccc3c2)CSSC[C@@H](C(=O)N[C@@H](Cc2ccc3ccccc3c2)C(N)=O)NC1=O,NCI-H1299-BRS-3,clonogenic assay in agarose,10 µM,,colony number,30 ± 3
COc1ccccc1/C=C/[N+](=O)[O-],H9c2,cytotoxicity,,relative to: CC50 H9c2 over CC50 MOLM-13,selectivity ratio,30.1
COC(=O)[C@H](CC(C)C)NC(=O)[C@@H]1CCCN1C(=O)[C@@H](NC(=O)[C@H](CCC(=O)C=[N+]=[N-])NC(=O)OCc1ccccc1)C(C)C,human myoblasts,measured: cytochrome c,"50 µM, 2 h",,mRNA level,increased
CCN(CC)CCOc1ccc(-c2nnn(Cc3ccc(OC)cc3)c2N)cc1,HEI-193,,"concentration not given, 3 days",,cell proliferation,decreased
Cc1cc(CS(=O)(=O)c2ccccc2)cc(OCc2ccc(CN3CCC[C@@H]3CO)cc2)c1,U2OS,fluo-4,"30 µM, together with: GPN 300 µM",,GPN-evoked Ca2+ release,94 ± 4%
CNC(=O)c1cc(Oc2ccc(NC(=O)CCC(=O)OC3OC4OC5(C)CCC6C(C)CCC(C3C)C46OO5)cc2)ccn1 (stereo not shown),Huh-7 and LO2,"cell viability, MTT",72 h,relative to: IC50 LO2 over IC50 Huh-7,selectivity ratio,4
CC12OOC(C)(OO1)C2CCC(=O)NCCNc1ccnc2cc(Cl)ccc12 (stereo not shown),MOLT-4,"cell growth or viability, resazurin","10 µM, 48 h",,inhibition,33.6%
CC(=O)O[C@H]1C[C@@H](O)[C@H]2[C@@H]3CC[C@H]4CC(=O)C=C(CO)[C@]4(C)[C@H]3CC[C@@]21C,PMA-differentiated THP-1,"TNF-α production, ELISA","concentration not given, 4 h, together with: LPS 50 ng/mL",,inhibition,81 ± 2.5%
CC[C@@]12CC[C@@H]3N(C)c4ccccc4[C@@]34CCN(C[C@H]3O[C@H]31)[C@@H]24,BV-2,NO production,"50 µM, 1 h, 24 h stimulation, together with: LPS 800 ng/mL",relative to: LPS control,inhibition,75.7 ± 1.9%
CNC(=O)c1cc(Oc2ccc(NC(=O)c3ccc(-c4ccc(OC(=O)CCC(=O)OC5OC6OC7(C)CCC8C(C)CCC(C5C)C68OO7)cc4)cn3)cc2)ccn1 (stereo not shown),Hep3B and LO2,"cell viability, MTT",72 h,relative to: IC50 LO2 over IC50 Hep3B,selectivity ratio,6.3
CN[C@](C)(C[18F])C(=O)O,SK-OV-3,amino acid uptake,"concentration not given, together with: BCH 10 mM",relative to: control,inhibition,6%
CC12CCC3(CCC(=O)OCCNc4ccnc5cc(Cl)ccc45)C(C)(OOC3(C)O1)O2,MOLT-4,"cell growth or viability, resazurin","10 µM, 48 h",,inhibition,12.9%
CC(C)C[C@@H]1NC(=O)[C@H](CC(C)C)NC(=O)[C@H](CC(N)=O)NC(=O)[C@@H]2CCCN2C(=O)[C@H](CC(C)C)NC(=O)[C@H](CC(C)C)NC(=O)[C@H](CC(C)C)NC(=O)[C@@H](NC(=O)[C@H](CO)NC(=O)[C@H](CC(N)=O)NC(=O)[C@@H](N)C(C)C)CSSC[C@@H](C(=O)NCC(=O)N[C@@H](CC(=O)O)C(=O)N[C@@H](CC(=O)O)C(=O)N[C@@H](CCCCNC(=O)CCCC[C@@H]2SC[C@@H]3NC(=O)N[C@@H]32)C(=O)NCCCCCC(=O)NCCCCCC(=O)NCCCCCC(=O)NCCCCCC(=O)NCCCCCC(=O)N[C@@H](CCCCNC(=O)CCCCc2cn(CCCC[C@H](NC(=O)N[C@@H](CCC(=O)O)C(=O)O)C(=O)O)nn2)C(=O)NCC(N)=O)NC(=O)CNC1=O,IFN-gamma-primed U-937,phagocytosis of PSMA-coated beads,,,EC50,20 to 30 nM
CC/C=C\C/C=C\C/C=C\C/C=C\C/C=C\C/C=C\CCC(=O)Nc1ccn(C2OC(CO)C(O)C2(F)F)c(=O)n1 (stereo not shown),SF-295,NCI60 screen,,,CC50,37500 nM
CCCCCCCCCCCCCC(=O)NCC(=O)N[C@@H](CCCNC(=N)N)C(=O)N[C@@H](Cc1c[nH]c2ccccc12)C(=O)N[C@@H](CCCCN)C(=O)N[C@H](C(=O)N[C@@H](Cc1ccccc1)C(=O)N[C@@H](CCCCN)C(=O)N[C@@H](CCCCN)C(=O)N[C@H](C(=O)N[C@@H](CCC(=O)O)C(=O)N[C@@H](CCCCN)C(=O)N[C@H](C(=O)NCC(=O)N[C@@H](CCC(N)=O)C(=O)N[C@@H](CC(N)=O)C(=O)N[C@H](C(=O)N[C@@H](CCCNC(=N)N)C(=O)N[C@@H](CC(=O)O)C(=O)NCC(=O)N[C@H](C(=O)N[C@H](C(=O)N[C@@H](CCCCN)C(=O)N[C@@H](C)C(=O)NCC(=O)N1CCC[C@H]1C(=O)N[C@@H](C)C(=O)N[C@H](C(=O)N[C@@H](C)C(=O)N[C@H](C(=O)N[C@H](C(=O)NCC(=O)N[C@@H](CCC(N)=O)C(=O)N[C@@H](C)C(=O)N[C@@H](C)C(=O)N[C@H](C(=O)N[C@H](C(N)=O)[C@@H](C)CC)[C@@H](C)O)C(C)C)C(C)C)C(C)C)C(C)C)[C@@H](C)CC)[C@@H](C)CC)C(C)C)[C@@H](C)CC)[C@@H](C)CC,K562/MDR,annexin V/PI flow cytometry,"2 µM, 16 h",,necrotic cells,15.9%
CC12OOC(C)(OO1)C2CCC(=O)OCCNc1ccnc2cc(Cl)ccc12 (stereo not shown),RPMI-8226,"cell growth or viability, resazurin","10 µM, 48 h",,inhibition,24.4%

# Excerpt of the above:
SMILES,cell line,assay,setting,how to read,quantity,value
CC(=O)O[C@H]1C[C@@H](O)[C@H]2[C@@H]3CC[C@H]4CC(=O)C=C(CO)[C@]4(C)[C@H]3CC[C@@]21C,PMA-differentiated THP-1,"TNF-α production, ELISA","concentration not given, 4 h, together with: LPS 50 ng/mL",,inhibition,81 ± 2.5%
CC12CCC3(CCC(=O)OCCNc4ccnc5cc(Cl)ccc45)C(C)(OOC3(C)O1)O2,MOLT-4,"cell growth or viability, resazurin","10 µM, 48 h",,inhibition,12.9%
CC12OOC(C)(OO1)C2CCC(=O)NCCNc1ccnc2cc(Cl)ccc12 (stereo not shown),MOLT-4,"cell growth or viability, resazurin","10 µM, 48 h",,inhibition,33.6%
CC(C)CC(O)(CC(C)C)c1cn(C(=O)N2CCCC2)nn1,mouse T-cells,"N-terminal labelling enrichment, measured: S100A6 N-terminal peptides","1 nM, 6 h, protein median",relative to: DMSO,SILAC ratio,3.93 ± 0.33
C[C@H]1C(OCCCCCCCC[P+](c2ccccc2)(c2ccccc2)c2ccccc2)O[C@@H]2O[C@@]3(C)CCC4[C@H](C)CCC1[C@]42OO3 (stereo partly shown),J82,PI flow cytometry,"100 nM, 48 h",,G0/G1 phase cells,73.1%
